Published values pooled from the literature.
Lines come from different studies, so protocols differ.
Target: Casein kinase I isoform alpha-like (CSNK1A1L, Homo sapiens, UniProt Q8N752)

`C[C@H]1CN(C(=O)c2cn(-c3ccnc(N)n3)c3cc(C#CC4(O)CCCCC4)ccc23)CCN1` has an inhibition of 44% (enzyme activity, inhibitor, FRET; 1 µM).
For `COc1cc(Nc2nc(C)cc(-c3cnn4nc(OC)ccc34)n2)cc(C(F)(F)F)c1`, the remaining activity was 100% (inhibitor; 1 µM; reference: control).
With `CCN1CCN(Cc2ccc(C(=O)Nc3ccc(C)c(NCc4cnc5[nH]ccc5c4OC)c3)cc2C(F)(F)F)CC1` the remaining binding was 100% (binding, competition with immobilised ligand; 1 µM).
With `C=CC(=O)N1CCCC(n2c(=O)c3ncccc3n(Cc3ccc(Oc4ccccc4)cc3)c2=O)C1` (centres unmarked) the remaining binding was 100% (cell-free assay, competition with immobilised ligand; 1 µM).
`CNC(=O)C1CCN(c2cc(C)c(F)cc2NC(=O)c2ccc(-c3cc(O)ccc3C)c(C)c2)CC1` has a remaining binding of 7.2% (binding, competition with immobilised ligand; 1 µM).
With `COc1c(Cl)cccc1Nc1c(-c2ccncc2C#C[C@@]2(C)CCCN2C(=O)/C=C/CN(C)C)[nH]c2c1C(=O)NCC2` the remaining binding was 100% (cell-free assay, competition with immobilised ligand; 3 µM).
For `Cc1ccc(-c2c(/C=C(\C#N)C(=O)NC(C)C)n(CCCO)c3ncnc(N)c23)cc1`, the remaining binding was 100% (cell-free assay, competition with immobilised ligand; 1 µM).
With `CNC1C[S+]2CC[S+]3CC[S+](C1)[Ru-4]321([N]=C=S)[n]2c3ccc(OC)cc3c3c4c(c5cc(F)c[n+]1c5c32)C(=O)NC4=O` (centres unmarked) the remaining binding was 89% (KinomeScan; 0.1 µM; reference: untreated).
The remaining activity of `Nc1ncc(-c2cc(-c3cnn(CC(F)(F)F)c3)ncc2F)nc1C(=O)NC1CNCC(F)C1` (centres unmarked) is reported as 90.7% (enzyme activity; 1 µM; reference: DMSO control).
For `COc1cc(Nc2nccc(-c3cnn4nc(OC)ccc34)n2)cc(C(F)(F)F)c1`, the remaining binding was 87% (binding, competition with immobilised ligand; 1 µM).
`CC(C)=CC1OC(C)(C)C2C=C3C(=O)C(Cl)=CC(O)C3C3C(O)C4OC4C(=O)C132` (centres unmarked) has a remaining binding of 93% (cell-free assay, competition with immobilised ligand; 10 µM).
For `CCn1cc(C(=O)O)c(=O)c2c(N)c(F)c(NC3CCCCC3)cc21`, the inhibition was 14.3% (kinase activity; 0.1 µM, with: ATP at Km).
The remaining binding of `C=CC(=O)N1CCc2ccc(-n3c(=O)ccc4cnc5ccc(-c6cnn(C)c6)cc5c43)cc21` is reported as 100% (KINOMEscan; 1 µM; reference: DMSO control).
For `Cc1cnc2nc1Nc1cccc(c1)COC/C=C/COCc1cc(ccc1OCCN1CCOCC1)N2`, the remaining binding was 98% (binding; 0.1 µM).
With `Nc1ncc2c(n1)-c1c([nH]c3ccc(C4=CCOCC4)cc13)CCC2` the remaining binding was 100% (binding, competition with immobilised ligand; 1 µM).
The inhibition of `C=CC(=O)N1Cc2nc(-c3cc(-c4cc(Cl)cnc4Cl)c(F)cc3F)n(-c3ccncn3)c2C1` is reported as 5.8% (cell-free assay; 1 µM).
`CN1CCN(Cc2ccc(-c3ccc(CO[C@H]4CCC[C@@H]4NC(=O)c4cc(-c5cnn(C)c5)cnc4N)cc3)cc2)CC1` has an inhibition of 4% (enzyme activity, inhibitor; 0.1 µM).

For quick reference, copied from above:
For `COc1cc(Nc2nc(C)cc(-c3cnn4nc(OC)ccc34)n2)cc(C(F)(F)F)c1`, the remaining activity was 100% (inhibitor; 1 µM; reference: control).
